Assay results pooled from the literature.
Compare with care: the assays were run in different laboratories. Numbers after ± are the reported error. Converted amounts (≈) assume the structure as drawn.

Compound | organism | test | test system | conditions | scale | endpoint | value
Nc1c([N+](=O)[O-])oc2ccc3ccccc3c12 | Mycobacteroides abscessus | REMA | ATCC 19977 | – | – | MIC90 | > 32 µg/mL
Nc1nc2c(ncn2COCCO)c(=O)[nH]1 | human alphaherpesvirus 2 | viral replication, RT-qPCR | HeLa, resistant to compound | – | – | IC50 | 73100 ± 1040 nM
CCCCCCCCCCCCCCCCCCO | hepatitis B virus | – | HepAD38 | 25 µM, 48 h | – | HBV DNA level | no effect
C[C@H]1CCC/C=C/[C@@H]2C[C@H](O)C[C@H]2[C@H](O)/C=C/C(=O)O1 | Toxoplasma gondii | parasite growth | HFF, bradyzoite, glutamine-induced | – | – | EC90 | 252 nM
CCn1c(=O)c(-c2ccc(Cl)cc2Cl)cc2cnc(Nc3ccc(N4CCNCC4)c(F)c3)nc21 | mouse hepatitis virus | viral replication | nanoluciferase reporter | 1 µM | – | inhibition | 47%
Fc1ccc(C(OCCN2CCN(CCCc3ccccc3)CC2)c2ccc(F)cc2)cc1 | Toxoplasma gondii | parasite growth | HFF, bradyzoite, alkaline-induced | – | – | EC50 | 12900 nM
O=C(O)c1ccc(-c2coc3ncc(-c4ccccc4)cc23)cc1Cl | mouse hepatitis virus | viral replication | nanoluciferase reporter | 1 µM | – | inhibition | 66%
C[C@@H](Oc1cc(-c2cnn(C3CCNCC3)c2)cnc1N)c1c(Cl)ccc(F)c1Cl | human coronavirus OC43 | virus-induced cell killing | MRC-5 | maximum over 10 doses | – | maximum inhibition | 0%
CCCCCCCCCCCc1c([N+](=O)[O-])oc2ccc3ccccc3c12 | Salmonella enterica | REMA | – | – | – | MIC90 | > 32 µg/mL
CC[C@H]1CN2CCc3cc(OC)c(OC)cc3[C@@H]2C[C@@H]1C[C@H]1NCCc2cc(OC)c(OC)cc21.Cl.Cl | Mus musculus | gene silencing, high-content imaging | LDR reporter GFP cells | retest run 2 | – | maximal activity | 51%
CN(N=O)C(=O)N[C@H]1C(O)O[C@H](CO)[C@@H](O)[C@@H]1O (mixture of isomers) | human coronavirus OC43 | virus-induced cell killing | MRC-5 | maximum over 10 doses | – | maximum inhibition | 0%
OC[C@H]1O[C@@H](n2ccc3c(SCc4ccc(Cl)cc4Cl)ncnc32)[C@H](O)[C@@H]1O | Toxoplasma gondii | intracellular parasite growth, [3H]uracil incorporation | human foreskin fibroblasts, RH wild type | – | – | IC50 | 11300 ± 900 nM
COc1ccc([C@@]23Oc4cc(OC)cc(OC)c4[C@@]24N=C(C)N[C@@]4(O)[C@H](C(=O)N(C)OC)[C@H]3c2ccccc2)cc1 | Hepatitis E virus | viral replication | HepG2 HEV-3 replicon, genotype 3 | 48 h | – | EC50 | 1.14 nM
NCCCC(N)(C(=O)O)C(F)F (racemic) | human coronavirus OC43 | virus-induced cell killing | MRC-5 | screen | – | maximum inhibition | 22.5%
CC(=O)NC[C@H]1CN(c2ccc(N3CCOCC3)c(F)c2)C(=O)O1 | Staphylococcus, coagulase-negative | – | – | – | – | MIC90 | 1 µg/mL (≈ 2.96 µM)
COC(=O)[C@@H]1[C@@H](c2ccccc2)[C@]2(c3ccc(OC)cc3)Oc3cc(OC)cc(OC)c3[C@@]23N=C(C)N[C@@]13O | Hepatitis E virus | viral replication | HepG2 HEV-3 replicon, genotype 3 wild boar isolate | 24 h | – | EC50 | 2.95 nM
Cc1ccc(CSc2ncnc3c2ccn3[C@@H]2O[C@H](CO)[C@@H](O)[C@H]2O)cc1 | Toxoplasma gondii | [3H]uracil incorporation | human fibroblasts, RH wild type | 10 µM | – | survival | 17.4%
CNC[C@H](O)[C@@H](O)[C@H](O)[C@H](O)CO.[O]=[Sb](=[O])[OH] | Leishmania major | – | BALB/c mouse | topical, dose not given, 21 days, unit not given | relative to: PBS | lesion size difference | 8.4
CCOc1cn(-c2ccc(F)cc2C)nc1C(=O)Nc1ccc(Oc2ccnc3cc(OC)c(OC)cc23)c(F)c1 | mouse hepatitis virus | viral replication | nanoluciferase reporter | 1 µM | – | inhibition | 19%
Cc1c([N+](=O)[O-])oc2ccc3ccccc3c12 | Mycobacteroides abscessus | REMA | ATCC 19977 | – | – | MIC90 | 4 µg/mL (≈ 17.6 µM)
CC[C@H]1OC(=O)[C@H](C)[C@@H](O[C@H]2C[C@@](C)(OC)[C@@H](O)[C@H](C)O2)[C@H](C)[C@@H](O[C@@H]2O[C@H](C)C[C@H](N(C)C)[C@H]2O)[C@](C)(O)C[C@@H](C)CN(C)[C@H](C)[C@@H](O)[C@]1(C)O | Streptococcus pyogenes | – | – | – | – | MIC90 | 4 µg/mL (≈ 5.34 µM)
CN(c1ncccc1CNc1nc(Nc2ccc3c(c2)CC(=O)N3)ncc1C(F)(F)F)S(C)(=O)=O | mouse hepatitis virus | viral replication | nanoluciferase reporter | 1 µM | – | inhibition | 34%
CO/N=C(\C(=O)N[C@@H]1C(=O)N2C(C(=O)O)=C(CSC(=O)c3ccco3)CS[C@H]12)c1csc(N)n1 | Staphylococcus aureus | – | CAAS-2019-CAAS-2019-13 clinical drug-resistant isolate, PBS | – | – | MBC | 16 µg/mL
OC[C@H]1O[C@@H](n2ccc3c(O)ncnc32)[C@H](O)[C@@H]1O | Toxoplasma gondii | [3H]uracil incorporation | human fibroblasts, adenosine kinase-deficient | 5 µM | – | parasite survival | 100%
Cc1c2c(nn1C)CSCc1cc(n(C)n1)CSc1cc(c3ccccc3c1)OCCCc1c(C(=O)O)n(C)c3c-2c(Cl)ccc13 | Staphylococcus aureus | label-free quantitative proteomics, item: SAOUHSC_02629 protein | SA113 | concentration not given | relative to: untreated control | fold change | 16.9
Cc1csc(-c2nnc(Nc3ccc(Oc4ncccc4-c4ccnc(N)n4)cc3)c3ccccc23)c1 | human coronavirus OC43 | virus-induced cell killing | MRC-5 | screen | – | maximum inhibition | 3.87%

Compound | organism | test | test system | conditions | scale | endpoint | value
Nc1ncnc2c1ncn2[C@@H]1O[C@@H]2COP(=O)(O)O[C@H]3[C@@H](O)[C@H](n4cnc5c(=O)[nH]cnc54)O[C@@H]3COP(=O)(O)O[C@H]2[C@H]1O | West Nile virus | RNA sequencing, item: cell junction organization R-HSA-446728 | HFF-1 cells | concentration not given, downregulated pathway | relative to: WNV-infected untreated cells | fold enrichment | 6.73
Cn1c(=O)ccc2ccc(F)c(CCNC[C@H]3CN(c4cnc5c(n4)NC(=O)CO5)C(=O)O3)c21 | coagulase-negative Staphylococcus | – | – | – | – | MIC50 | < 0.015 µg/mL
O=[N+]([O-])c1cc2c(ccc3c4cc([N+](=O)[O-])oc4ccc23)o1 | Mycobacteroides abscessus | REMA | ATCC 19977 | – | – | MIC90 | > 32 µg/mL
COc1ccc(NC(=O)N2CCCCN3[C@H](CN(C)C)[C@H](c4ccc(C#Cc5ccccc5)cc4)[C@@H]3C2)cc1 | Toxoplasma gondii | ex vivo bradyzoite plaques | ME49 | 3 times EC90, continuous exposure | – | inhibition | inhibited
COc1cc(O)c(CC=C(C)C)c(O)c1C(=O)/C=C/c1ccc(O)cc1 | human coronavirus OC43 | virus-induced cell killing | MRC-5 | screen | – | maximum inhibition | 15.9%
OC[C@H]1O[C@@H](n2ccc3c(SCc4ccc(F)cc4F)ncnc32)[C@H](O)[C@@H]1O | Toxoplasma gondii | [3H]uracil incorporation | human fibroblasts, RH wild type | 25 µM | – | survival | 0%
CC[C@H](C)[C@H](NC(=O)[C@H](CCCNC(=N)N)NC(=O)[C@H](Cc1c[nH]c2ccccc12)NC(=O)[C@H](CCCNC(=N)N)NC(=O)[C@H](Cc1c[nH]c2ccccc12)NC(=O)[C@H](Cc1c[nH]c2ccccc12)NC(=O)[C@H](Cc1c[nH]c2ccccc12)NC(=O)[C@H](CCCNC(=N)N)NC(=O)[C@H](Cc1c[nH]c2ccccc12)NC(=O)[C@H](CCCNC(=N)N)NC(=O)CN)C(N)=O | Candida albicans | broth microdilution | CGMCC 2.209, RPMI 1640-MOPS | 48 h, 30 °C, together with: FeCl3 4 µM | – | MIC | 16 µM (≈ 27.9 µg/mL)
C[N+](C)(C)CCO.C[N+](C)(C)CCO.[SH-].[SH-].[S]=[Mo]=[S] | human coronavirus OC43 | virus-induced cell killing | MRC-5 | screen | – | maximum inhibition | 16.4%
OC[C@H]1O[C@@H](n2ccc3c(SCc4ccc(Cl)c(Cl)c4)ncnc32)[C@H](O)[C@@H]1O | Toxoplasma gondii | [3H]uracil incorporation | human fibroblasts, RH wild type | 5 µM | – | survival | 83.6%
CCCCc1ccc(CNc2nc(N(C)C)nc(N(C)C)c2/N=N/c2ccc(Cl)cc2)cc1 | Ostrinia furnacalis | leaf dipping | – | 25 mg/L | – | mortality | 56.7%
COc1cc2c(cc1O)CC[C@@H]1[C@@H]2CC[C@]2(C)[C@@H](O)CC[C@@H]12 | human coronavirus OC43 | virus-induced cell killing | MRC-5 | maximum over 10 doses | – | maximum inhibition | 0%
COC(=O)N[C@H](C(=O)N1CCC[C@H]1c1ncc(-c2ccc(-c3ccc(-c4cnc([C@@H]5CCCN5C(=O)[C@@H](NC(=O)OC)C(C)C)[nH]4)cc3)cc2)[nH]1)C(C)C | Hepatitis C virus | – | replicon cells | 90% effect level, together with: NS5B palm site II inhibitor, ratio 1:1 | – | combination index | 0.77
COc1ccc(C[C@H](NC(=O)[C@H](C)NC(=O)CN2CCOCC2)C(=O)N[C@@H](Cc2ccccc2)C(=O)C2(C)CO2)cc1 (stereo in doubt) | Plasmodium falciparum | parasite growth | Dd2 R539T, artemisinin-resistant | 72 h, ring stage | – | IC50 | 13.3 ± 2.1 nM
CN(c1ccc(NC(=O)c2cccc(C(=N)N)c2)cc1OCc1ccc(C(=N)N)cc1)S(=O)(=O)Cc1ccccc1 | Trypanosoma brucei | western blot | – | 500 and 1000 nM | – | polymerised tubulin amount | decreased
CS(=O)(=O)CCCn1c(Cn2c(=O)n(CC(F)(F)F)c3ccncc32)cc2cc(Cl)ccc21 | respiratory syncytial virus | RT-qPCR | hospitalized infants 1-24 months, nasal swab | oral, 2, 1.5 or 1 mg/kg daily, day 6, low dose by age cohort | relative to: baseline | LS mean viral load change | -3.82 log10 copies/mL
C[C@@H]1C[C@@H]([C@H](O)CC2CC(=O)NC(=O)C2)C(=O)[C@@H](C)C1 | Mus musculus | gene silencing, high-content imaging | LDR reporter GFP cells | 30 h, retest, mean of two runs | – | Emax | 49%
C=C(c1ccc(C(=O)O)cc1)c1cc2c(cc1C)C(C)(C)CCC2(C)C | human coronavirus OC43 | virus-induced cell killing | MRC-5 | screen | – | maximum inhibition | 7.22%
CN(C)CCCn1cc(C2=C(c3c[nH]c4ccccc34)C(=O)NC2=O)c2ccccc21 | mouse hepatitis virus | viral replication | nanoluciferase reporter | 1 µM | – | inhibition | 37%
COc1cc2oc([N+](=O)[O-])cc2c2ccccc12 | Mycobacteroides abscessus | REMA | ATCC 19977 | – | – | MIC90 | > 32 µg/mL
CN1CC[C@@]2(C)c3cc(OC(=O)Nc4ccccc4)ccc3N(C)[C@@H]12 | Toxoplasma gondii | parasite growth | HFF, bradyzoite, alkaline-induced | – | – | EC90 | 78800 nM
CC[C@H](C)[C@H](NC(=O)[C@H](C)NC(=O)[C@H](CCCCN)NC(=O)[C@H](CC(C)C)NC(=O)[C@H](C)NC(=O)[C@@H](NC(=O)[C@H](Cc1c[nH]cn1)NC(=O)[C@H](CC(C)C)NC(=O)[C@@H](NC(=O)[C@@H](NC(=O)[C@H](CCCCN)NC(=O)[C@H](C)NC(=O)[C@H](C)NC(=O)[C@H](CO)NC(=O)[C@H](CCCCN)NC(=O)[C@H](Cc1ccccc1)NC(=O)[C@@H](NC(=O)[C@H](CCCCN)NC(=O)[C@H](CC(C)C)NC(=O)[C@H](Cc1ccccc1)NC(=O)[C@H](CO)NC(=O)[C@H](CCCCN)NC(=O)[C@H](Cc1c[nH]c2ccccc12)NC(=O)[C@H](CCCCN)NC(C)=O)[C@@H](C)O)[C@@H](C)O)C(C)C)[C@@H](C)O)C(=O)N[C@@H](CO)C(=O)N[C@@H](CO)C(N)=O | Klebsiella pneumoniae | – | ATCC 1705 | – | – | MBC50 | 16 µg/mL (≈ 5.45 µM)
c1ccc2c(c1)[I+]c1ccccc1-2 | Toxoplasma gondii | – | – | alkaline-induced bradyzoites | – | EC90 | 460 nM
C[C@@H]1C[C@@H]([C@H](O)CC2CC(=O)NC(=O)C2)C(=O)[C@@H](C)C1 | Fusarium solani | – | – | concentration not given | – | inhibition zone diameter | 12 ± 0.54 mm
COc1ccccc1-c1cc(Nc2cccc(CS(N)(=O)=O)c2)ncn1 | mouse hepatitis virus | viral replication | nanoluciferase reporter | 1 µM | – | inhibition | -17%
COc1ccc2c(ccc3oc([N+](=O)[O-])cc32)c1 | Salmonella enterica | REMA | – | – | – | MIC90 | < 0.25 µg/mL

Repeated from above:
Compound | organism | test | test system | conditions | scale | endpoint | value
COc1cc(O)c(CC=C(C)C)c(O)c1C(=O)/C=C/c1ccc(O)cc1 | human coronavirus OC43 | virus-induced cell killing | MRC-5 | screen | – | maximum inhibition | 15.9%
Nc1ncnc2c1ncn2[C@@H]1O[C@@H]2COP(=O)(O)O[C@H]3[C@@H](O)[C@H](n4cnc5c(=O)[nH]cnc54)O[C@@H]3COP(=O)(O)O[C@H]2[C@H]1O | West Nile virus | RNA sequencing, item: cell junction organization R-HSA-446728 | HFF-1 cells | concentration not given, downregulated pathway | relative to: WNV-infected untreated cells | fold enrichment | 6.73
COc1ccc(NC(=O)N2CCCCN3[C@H](CN(C)C)[C@H](c4ccc(C#Cc5ccccc5)cc4)[C@@H]3C2)cc1 | Toxoplasma gondii | ex vivo bradyzoite plaques | ME49 | 3 times EC90, continuous exposure | – | inhibition | inhibited
O=C(O)c1ccc(-c2coc3ncc(-c4ccccc4)cc23)cc1Cl | mouse hepatitis virus | viral replication | nanoluciferase reporter | 1 µM | – | inhibition | 66%
Cc1c([N+](=O)[O-])oc2ccc3ccccc3c12 | Mycobacteroides abscessus | REMA | ATCC 19977 | – | – | MIC90 | 4 µg/mL (≈ 17.6 µM)
